Measurements collected from several papers.
Numbered parts are unrelated; each lists some results of a single study.

Study 1
Target: Sal-like protein 4, full length isoform B (SALL4, Homo sapiens, UniProt Q9UJQ4-2, residues 1-616)
Method: universal PBM
Form: double-stranded DNA, one strand shown
Sample: in vitro
Tested at: not given
Setting: 8-mer, flanks averaged, mean of replicates
Direction: higher = stronger binding
Residues (chain): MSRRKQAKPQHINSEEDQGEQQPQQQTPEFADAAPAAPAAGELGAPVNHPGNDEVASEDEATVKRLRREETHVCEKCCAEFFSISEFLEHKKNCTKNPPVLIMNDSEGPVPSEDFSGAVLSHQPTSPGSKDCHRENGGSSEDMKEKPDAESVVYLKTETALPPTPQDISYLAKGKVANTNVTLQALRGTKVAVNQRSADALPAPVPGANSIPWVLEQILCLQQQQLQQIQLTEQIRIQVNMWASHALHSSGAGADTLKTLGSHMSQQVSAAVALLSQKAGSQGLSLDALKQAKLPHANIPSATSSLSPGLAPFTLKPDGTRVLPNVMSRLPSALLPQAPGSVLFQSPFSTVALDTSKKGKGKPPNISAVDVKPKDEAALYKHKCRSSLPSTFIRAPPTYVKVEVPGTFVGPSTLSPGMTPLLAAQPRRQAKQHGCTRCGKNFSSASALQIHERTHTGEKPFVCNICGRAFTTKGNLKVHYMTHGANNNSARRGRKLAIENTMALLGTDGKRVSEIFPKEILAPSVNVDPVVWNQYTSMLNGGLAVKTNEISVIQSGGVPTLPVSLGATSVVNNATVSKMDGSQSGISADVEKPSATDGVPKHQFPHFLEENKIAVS
Sequence	E-score
AAAGTGAC	0.0455
AAACGTCT	0.13
AGTACATC	0.172
ACAGATTA	0.0745
GAAGCGTC	-0.00998
CTGTTAAG	0.0593
TCATGCAA	0.184
CCCAAAAA	-0.0061
CCCGGTAG	-0.264
CCATTACC	-0.126
ACATGCGC	-0.0837
ACTCGTGA	-0.0217
ATAATTAC	0.444
GGCTATCA	-0.0191
GCTAGGTA	0.00663
ACTAGTCA	0.0497
CTGAAGAC	-0.113
ACGGGCCC	-0.408
AATAGCGA	0.171
ACCAATAT	0.324
TCCTGTCA	0.0093

Study 2
Target: RING finger protein unkempt homolog, zinc fingers 1-6, GST-SBP tag (UNK, Homo sapiens, UniProt Q9C0B0, residues 30-357)
Method: RNA Bind-n-Seq
Form: RNA
Sample: in vitro
Tested at: not given
Setting: RNA with constant flanks, human-mouse chimeric sites, ends assumed
Reference: input RNA pool
Direction: higher = stronger binding
Constant ends, left off below: GGGAGUUCUACAGUCCGACGAUC … CAACAGAGGAUUGAGCAUCA
Target sequence (chain): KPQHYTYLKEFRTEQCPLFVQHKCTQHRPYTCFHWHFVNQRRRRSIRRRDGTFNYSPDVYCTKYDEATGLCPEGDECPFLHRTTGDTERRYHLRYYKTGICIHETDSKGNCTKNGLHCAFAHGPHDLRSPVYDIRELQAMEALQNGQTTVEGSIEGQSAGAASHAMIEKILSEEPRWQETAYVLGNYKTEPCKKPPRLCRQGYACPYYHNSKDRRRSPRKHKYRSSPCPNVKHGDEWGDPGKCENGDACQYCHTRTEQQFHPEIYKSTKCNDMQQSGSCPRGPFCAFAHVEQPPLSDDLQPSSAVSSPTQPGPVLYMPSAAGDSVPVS
Sequence	bound/input enrichment [ratio]
GAGCGUCUCGCUCGAACUGGGAUCAUCGUGACCACUAGUGAGGCUGUCCUCCUACAGCUGGUGGCUGAUAAGGACCACCCGAAGUUCAAGGAAAUUCAGAACCUAAUUAAGGCGAGUGCC	0.145
AUUCCGAUUAUGGACACCGGUGAAAACCCAGAGGUUCCCUUCCCCCGGGACAUGAUCGACUUAGAGGCCAAUUUUGAGAAGAUUGAAAAUGAACUGAAGGAAAUCAACACAAACCAGGAA	0.108
CGCUUGGAUGAGGCGGGUGUUACUGAUGAAGUGCUAGAUUCUGCCAUGCAAGCCUUCCUUCUGGAGGUCAUUGUUAAACAUGGGGAGCCAGCCCCUUAUUUAUGUAACAAAGAUCCGUUU	0.0901
GACUUUGGAACUGGUCCUCGUAAUGCAGCCUUCUAUAGCCCUCAUGGACAUAUAUUAGUGCUGGCUGGAUUUGGAAAUCUUCGAGGACAAAUGGAAGUAUGGGAUGUUAAAAACUACAAG	0.308
UACUACUAUGAUGGUGAUAUUGGAAAUUAUUAUUAUGGCCAGGGUCAUCCCAUGAAGCCUCAUAGAAUCCGGAUGACUCAUAACUUGCUGCUAAAUUAUGGUUUAUACAGAAAAAUGGAA	0.283
UGUGAACUGUCUCUUGAGAUCUAAAAACAAGAUGACUUUUCCUGGCACAUAUUCCAAAGCAUAGACUUUGUUGCCUGCUGCUUCUUGUCUAAUUUACAGGGAUAUUUAAUUUUGUCAGGU	0.129
UCCCAAAUCCAGCAGCUAGAAGGAGCCUUGAGACAAACACUCCACACGCAGGGAGGGCGAUAACAUUGUACAUUGGUUUACAUUUUUCUCCUUGAAUGAUUUUUCUAGAGGUCAUAGUGC	0.335
GACUUGGGACCGUCCUGGCUAGUGCAAAAUAGCGGCAGUGGAGGCUCGAGAGGAAAGUUUGUUAGUGGAGGCAGUGGUAGAGGCCGUCAUGUACGGUCCUUUACUCGAUAGAUGUGUUCU	0.62

Study 3
Target: Interferon regulatory factor 7, full length, phosphomimetic (IRF7, Homo sapiens, UniProt Q92985, residues 1-503, S101K/S471D/S472D/S475D/S476D/S477D/S483D/S484D/S487D)
Method: protein-binding microarray
Form: double-stranded DNA, one strand shown
Sample: in vitro
Tested at: 250 nM
Setting: 60-bp whole probe
Together with: salmon DNA 0.4 mg/ml
Reference: random background probes
Direction: higher = stronger binding
Constant ends, left off below: GCCTAGCAC … GTCTTGATTCGCTTGACGCTGCTG
Construct (chain): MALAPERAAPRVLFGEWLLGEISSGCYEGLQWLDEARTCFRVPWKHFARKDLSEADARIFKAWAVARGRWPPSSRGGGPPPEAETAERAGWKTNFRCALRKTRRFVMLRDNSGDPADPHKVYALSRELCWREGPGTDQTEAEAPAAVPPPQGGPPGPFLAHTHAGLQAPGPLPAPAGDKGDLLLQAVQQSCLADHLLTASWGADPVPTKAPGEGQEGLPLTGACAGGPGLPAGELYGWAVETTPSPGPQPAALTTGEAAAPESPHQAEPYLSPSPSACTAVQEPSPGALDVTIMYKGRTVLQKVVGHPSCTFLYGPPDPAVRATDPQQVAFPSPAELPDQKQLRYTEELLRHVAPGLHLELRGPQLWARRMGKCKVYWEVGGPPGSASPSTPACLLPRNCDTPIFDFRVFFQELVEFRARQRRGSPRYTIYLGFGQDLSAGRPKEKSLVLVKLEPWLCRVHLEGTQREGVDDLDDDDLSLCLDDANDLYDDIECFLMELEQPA
Sequence	log fluorescence [z-score]
GACGATTTCAGACTGGAGATGTGCTAG	0.0386
TTAGAACTGAGAGTGGATTAGTGCTAG	-0.406
TTGGGACTGGGTATCGGTTAGTGCTAG	0.265
GACCATATCAGTCTCGAGACGTGCTAG	0.917
GACGGTTTCGGTTCCGAGACGTGCTAG	12.2
GACGGTATCGGTTTAGGGACGTGCTAG	5.68
GACGATATCAGGTATCGAGACGTGCTA	0.221
TTACGTATCGGGACTGGGTTAGTGCTA	0.0413
GACGCTCTCAGACTGGAGACGTGCTAG	-0.0324
TCATCTTTATGCACTCTCACTGTGCTA	0.152
TGGGTATTTTTTCTGAACCAGTGCTAG	0.354
TTAGGTTTCGTTTTCCTTTAGTGCTAG	14.6
TTAGGTTTCGGGTCCGGTTAGTGCTAG	7.13
ATCGTAAGCAAAAATGATTGGTGCTAG	-0.175
GTGTTATTAAAACTTCATGAAGTGCTA	1.28
TTTGATATCAGTTTCGATTAGTGCTAG	8.67
TTAGGACTGGCGTATCGGTTAGTGCTA	-0.479

Study 4
Target: Fragile X messenger ribonucleoprotein 1, C-terminal low-complexity region (Fmr1, Mus musculus, UniProt P35922)
Method: RNA Bind-n-Seq
Form: RNA
Sample: in vitro
Tested at: 200 nM
Setting: whole 134-nt RNA, ends assumed
Together with: 150 mM LiCl
Reference: input library
Direction: higher = stronger binding
Each molecule: 7-deaza-guanosine replaces G
Constant ends, left off below: GGGAGUUCUACAGUCCGACGAUC … UGGAAUUCUCGGGUGUCAAGG
Sequence	log2 enrichment
ACCAUGCAGGUGGGCAUCUUUGGGAAGUGGGGCAAGGGGGGGAUAGGGAGGGGGGUAACACUUUGGGGACAGGUGGUCCCAGGUCGUUUC	1.49
AGGACGUGCAGAACUUCCUCUCUGACUGCACGAUUCAUGAUGGGGCCGCAGGUGUCCAUUUCAUCUACACUAGAGAGGGCAGGCAGAGUG	0.122
ACCAUGCAGGUGGGCAUCAAAGGGAAGUGGGGCAAGGGGGGGAUAGGGAGGGGGGUAACACUUUGGGAACAGGUGGUCCCAGGUCGUUUC	1.22
CCUGUGCUACACAUCGUAUGUACCGAAUCGGGUUUUUUUGGGAAAAAGGGAAAAAAAGGGAAAGUAUUAUGUUACGCCGUUCGGAUCUGC	-2.28
UCCUCAAGUCCUGUGCUACACAUCGUAUGUACCGAAUCGGUGGAAAGGUGGAAAGUAUUAUGUUACGCCGUUCGGAUCUGCACUUCCAGC	0.1
UGCUGAAGCUCACACCCGUGGACCACCCAGACUGCCUGCCGCUACAGGAUGCCCUCCGCAUCUCCCAGGACUUCUUUCCGGCAUCAGUGU	-0.814
UCCUGUGCUACACAUCGUAUGUACCGAAUCGGGGUGGGGAAAAAAAGGGGUUUUUGGGGAAAGUAUUAUGUUACGCCGUUCGGAUCUGCA	-0.586
CUCAAGUCCUGUGCUACACAUCGUAUGUACCGAAUCGGAGGUUUUUUUGGUGGAAAGUAUUAUGUUACGCCGUUCGGAUCUGCACUUCCA	-0.787
UCCCUGUCCAAGCUGAGCGCCCUCAACGAGAGCCUUGCUCAGGACAAGUUGGAUCUGAACUGCCUUGUCACCCAGGUACACUGUGCACCU	-0.423
UCCUCAAGUCCUGUGCUACACAUCGUAUGUACCGAAUCGGGUGGUGGGGUGGAAAGUAUUAUGUUACGCCGUUCGGAUCUGCACUUCCAG	-0.116
UCAAGUCCUGUGCUACACAUCGUAUGUACCGAAUCGGGGUUUGGUUUGGUUUGGGAAAGUAUUAUGUUACGCCGUUCGGAUCUGCACUUC	-1.68

Study 5
Target: Histone acetyltransferase KAT6A, winged helix 1, GST fusion (KAT6A, Homo sapiens, UniProt Q92794, residues 1-85)
Method: protein binding microarray
Form: double-stranded DNA, one strand shown
Sample: in vitro
Tested at: not given
Setting: 8-mer, flanks averaged, mean of 2 arrays, mostly near background
Reference: not given
Direction: higher = stronger binding
Construct (chain): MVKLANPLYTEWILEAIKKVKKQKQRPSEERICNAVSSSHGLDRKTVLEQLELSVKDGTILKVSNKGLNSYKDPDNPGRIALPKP
Sequence	E-score
ATGCACAA	-0.23
CCCCTATC	-0.141
GCTGTACC	0.152
GTAACTTA	-0.139
ACACCAAG	-0.114
CACAATCC	-0.00322
AGAACGCC	-0.0104
ATCATCAG	-0.07
CGTCTACA	0.102
GACCATGC	0.11
AAAGCTTG	-0.191
GAATTATA	-0.0959
CGAGATCC	0.0269
CGTCCGGC	0.367
CCCGGGCG	0.381
CCAAACTA	-0.124
CACTTTAA	-0.137
ATCTGTAC	-0.00911
AGTCCTTC	-0.129
AACAGCGC	0.33
ACGGCGGC	0.463
ACATGCGC	0.304
AGGTTCAA	-0.207
CGGTTTGC	0.279
TAACTGAA	-0.204

For quick reference, copied from above (study 5):
Sequence	E-score
CACTTTAA	-0.137
CGTCTACA	0.102
GACCATGC	0.11
ACATGCGC	0.304
CACAATCC	-0.00322
ATCATCAG	-0.07
CCCCTATC	-0.141
CGGTTTGC	0.279
AGTCCTTC	-0.129
CGAGATCC	0.0269
ACGGCGGC	0.463
AGGTTCAA	-0.207
ATGCACAA	-0.23
AGAACGCC	-0.0104
